Measured values of several laboratories.
A part holds a random share of what one study measured. Positions count from the first letter of the parent shown.

Set 1
Target: CCNE2, cyclin fold, Cln2 fusion (human)
Method: yeast growth competition, sequencing
Medium: yeast
Setting: strong parent motif
Reference: not given
Direction: higher = stronger binding
Starting sequence: CDC25A docking peptide (human); PPHRRRLLFACSP
Substitution	normalised enrichment score
L8V	3.29
S12Y	1.93
P2L	0.634
H3L	1.1
P13E	2.44
R4P	0.693
R6E	0.393
R4Y	0.969
R6G	0.577
C11G	2.01
R6C	0.502
P2T	2.1
L8S	2.81
A10D	3.89
S12T	2.15
R5Y	0.522
P13Y	2.37
P13D	3.06

Set 2
Target: Prothrombin, mature alpha-thrombin (F2, Homo sapiens, UniProt P00734)
Method: aptamer microarray, sandwich
Form: DNA with 2'F-ANA
Medium: in vitro
Tested at: 200 nM
Setting: whole 15-mer aptamer, many near background
Together with: Cy3 exosite-II aptamer, 400 nM
Direction: higher = stronger binding
Oligonucleotide: GGTTGGTGTGGTTGG
Modification	mean fluorescence intensity
2'F-ANA at 1 2 4 7 9 11 12 14 15	61.3 a.u.
2'F-ANA at 3 4 5 9 10	52.8 a.u.
2'F-ANA at 5 7 13	165 a.u.
2'F-ANA at 2 3 4 5 6 8 10 11 12 13 15	50.4 a.u.
2'F-ANA at 1 2 3 8 9 10 11 14 15	52.7 a.u.
2'F-ANA at 2 4 7 8 10 11 12	119 a.u.
2'F-ANA at 7 11 14 15	216 a.u.
2'F-ANA at 1 2 4 5 11 14 15	45.2 a.u.
2'F-ANA at 3 6 7 9 10 13 14	375 a.u.
2'F-ANA at 1 2 3 6 11 15	156 a.u.
2'F-ANA at 1 4 6 7 9 10 12 13 14 15	90.3 a.u.
2'F-ANA at 1 2 7 8 9 10 11 12 13	63.3 a.u.
2'F-ANA at 2 4 5 6 8 9 10	46.3 a.u.
2'F-ANA at 1 4 5 6 7 8 9 10 11 13 14 15	46.7 a.u.
2'F-ANA at 4 5 8 9 10 11 13 14 15	46.7 a.u.
2'F-ANA at 3 4 5 8 9 14 15	48.3 a.u.
2'F-ANA at 2 4 5 6 7 8 11 14	52.9 a.u.
2'F-ANA at 1 2 8 10 14 15	44.9 a.u.
2'F-ANA at 2 3 7 8 9 10 11 12	379 a.u.
2'F-ANA at 2 6 9 10 12 13 14	86.5 a.u.
2'F-ANA at 2 6 7 9 10 11 14 15	82.5 a.u.
2'F-ANA at 3 5 6 7 8 10 11 12	62.1 a.u.
2'F-ANA at 2 3 4 7 8 10 12 13	331 a.u.
2'F-ANA at 2 4 5 7 8 9 13 14 15	95.6 a.u.
2'F-ANA at 1 5 6 7 9 13	49.1 a.u.

Set 3
Target: Interferon regulatory factor 7, full length, phosphomimetic (IRF7, Homo sapiens, UniProt Q92985, residues 1-503, S101K/S471D/S472D/S475D/S476D/S477D/S483D/S484D/S487D)
Method: protein-binding microarray
Form: double-stranded DNA, one strand shown
Medium: in vitro
Tested at: 250 nM
Setting: 60-bp whole probe
Together with: salmon DNA 0.4 mg/ml
Reference: random background probes
Direction: higher = stronger binding
Constant ends, left off below: GCCTAGCAC … GTCTTGATTCGCTTGACGCTGCTG
Construct (chain): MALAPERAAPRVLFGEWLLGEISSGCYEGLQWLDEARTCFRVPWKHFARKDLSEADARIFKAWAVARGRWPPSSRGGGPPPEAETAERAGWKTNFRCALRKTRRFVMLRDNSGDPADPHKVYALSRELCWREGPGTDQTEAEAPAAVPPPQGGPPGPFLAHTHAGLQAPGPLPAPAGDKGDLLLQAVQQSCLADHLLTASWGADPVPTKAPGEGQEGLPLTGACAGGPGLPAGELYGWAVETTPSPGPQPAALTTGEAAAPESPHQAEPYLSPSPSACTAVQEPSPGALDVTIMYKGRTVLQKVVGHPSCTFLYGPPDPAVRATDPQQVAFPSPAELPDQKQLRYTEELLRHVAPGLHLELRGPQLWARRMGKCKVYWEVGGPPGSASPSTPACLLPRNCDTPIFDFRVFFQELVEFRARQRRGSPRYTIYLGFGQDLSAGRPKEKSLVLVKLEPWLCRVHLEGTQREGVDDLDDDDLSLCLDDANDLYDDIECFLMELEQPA
Oligonucleotide	log fluorescence
GACGAACTGAGGTTTCGAGACGTGCTA	2.99 z-score
AGCCGAACAGCAATCGGATGGTGCTAG	-0.817 z-score
TTGGATTTCAGTATCGATTAGTGCTAG	0.879 z-score
ATAGATTTCAGTATCGATTAGTGCTAG	1.11 z-score
TTAGATCTCAGTCTCGTTTAGTGCTAG	2.15 z-score
TTAGGTTACGGACTGGGTTAGTGCTAG	0.0923 z-score
ATGGCTTTGCCTTTTGCTTTGTGCTAG	-1.04 z-score
GAAGGTCTCCTTCTCCTGACGTGCTAG	0.105 z-score
GACGGTCTCCTTATCCTGAGGTGCTAG	0.0513 z-score
TTAGGTTCCGATTTCGGTTAGTGCTAG	5.8 z-score
TTAGGACTGGACACTGGGTAAGTGCTA	-0.582 z-score

Set 4
Target: RING finger protein unkempt homolog, zinc fingers 1-6, GST-SBP tag (UNK, Homo sapiens, UniProt Q9C0B0, residues 30-357)
Method: RNA Bind-n-Seq
Form: RNA
Medium: in vitro
Tested at: not given
Setting: RNA with constant flanks, human and mouse sites, ends assumed
Reference: input RNA pool
Direction: higher = stronger binding
Constant ends, left off below: GGGAGUUCUACAGUCCGACGAUC … CAACAGAGGAUUGAGCAUCA
Residues (chain): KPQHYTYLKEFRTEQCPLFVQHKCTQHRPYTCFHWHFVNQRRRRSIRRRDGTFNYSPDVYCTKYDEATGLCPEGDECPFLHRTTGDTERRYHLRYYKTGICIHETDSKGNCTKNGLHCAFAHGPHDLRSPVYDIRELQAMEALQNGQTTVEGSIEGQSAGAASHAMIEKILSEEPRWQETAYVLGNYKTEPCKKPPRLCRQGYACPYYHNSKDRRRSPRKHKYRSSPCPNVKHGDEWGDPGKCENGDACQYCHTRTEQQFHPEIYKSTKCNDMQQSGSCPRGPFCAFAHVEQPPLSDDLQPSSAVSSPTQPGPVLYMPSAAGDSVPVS
Oligonucleotide	bound/input enrichment
AAUGCUGUCCUCAAUGCUGGAGCUGGAGAGGAUAAUCUGGAGUUCCGCCUACAUCUACGGUAUGAAUUCCUGAUGCUGGGUAUACAGCCUGUGAUUGACAAGCUCCGGCAACAUGAAAAU	0.0997 ratio
UUGUUGAAGAACCAGCUGUCUGAUCCUGAUAUAAAGGAUGACCAGAUCAUUAACUGGCUACUAGAAUUUCGUUCCUCUGUCAUGUACUUGACAAAAGACUUUGAGCAACUUAUAAACAUC	0.213 ratio
AAGACUGUUGACCUGAAGCCUGACUGGGGCAAGGGUUAUUCAAGAAAAGCAGCAGCCCUUGAAUUCCUAAACCGGUUUGAGGAAGCCAAACGAACCUAUGAAGAAGGUUUAAAACAUGAA	0.209 ratio
GUCUCAUCUGUAUGCAUCUUAUGCAUGUGAUUCAAUAGACUAGAUCGAUUCUGUGUGGUUUAUCAUAGUAGAUACACAAACCAGUCUUUAUUUUUUACUUAAGAAAAUAUAUAAGUGGAA	0.468 ratio
CUAAAGGCAGAAAACCUGCUCCUGGAUGCUGAUAUGAACAUCAAGAUUGCAGACUUUGGCUUUAGCAACGAAUUCACCUUUGGGAACAAGCUGGAUACUUUCUGUGGCAGUCCUCCUUAU	0.164 ratio
UUAUAUCUUUCUGUCAUUCGAAAGAUACCAGCCUUGACUGAAAAUGACCCUGAAACUUGGAUAGUUUGUAAUUUUUCUGUGGAUCAUGACAGUGCUCCUCUAAACAACCGAUGUGUCCGU	0.299 ratio
UGGAUCCAUCGAUGCUGUUCCUGUUGAUGAAAACCUGUUCACUGGCGAAGAUCUGGAUGAACUAGAAGAGGAAUUGAACACUCUUGACUUAGAAGAAUGAUGAGGAUGAAAACUAGGUCA	0.572 ratio
GCUUCAGAUGACAUGACUGUGGUAGAUGCAGCUUCAUUAAGACGUCAGAUAAUCAAAUUAAAUAGACGUCUCCAACUUCUGGAAGAGGAGAAUAAAGAGCGUGCUAAAAGAGAAAUGGUC	0.411 ratio
AAGCACUUUCAACAGGCAAAAAUGAUAUUGGAAAAUAUUCCUAACCCGGACCAUGAGGUUAAUAGAAUUUUAAAGGUUGCCAAACCCAACUUUGUGGUUAUGAAGUUAUUGGCAGGAGGA	1.87 ratio
AUAUAUUGUAACAGAAUGUAUAAAUAUUUUUGAUAAAACAGUCUAUAUUUUAUAAAAAGUUAUUAUAACACUAAAGCUGUACCUCAAAAGUCUCACAAAUAAUUUGAUCAAAUGCUCUAC	0.214 ratio
CACUAGAGAUUUUUCUGUUUUUGAAAAUAGUUCGUGCUCUUCGGUUUUUGUUAUUGAACUGUUUCAUGUAUUUUUUAAAGACAUUUGAGGGGAGGAGGAUUAUUAUGAAUGGGAAAAAAA	1.48 ratio

Set 5
Target: Histone acetyltransferase KAT6A, both winged helices, GST fusion (KAT6A, Homo sapiens, UniProt Q92794, residues 1-181)
Method: protein binding microarray
Form: double-stranded DNA, one strand shown
Medium: in vitro
Tested at: not given
Setting: 8-mer, flanks averaged, mean of 2 arrays, mostly near background
Reference: not given
Direction: higher = stronger binding
Construct (chain): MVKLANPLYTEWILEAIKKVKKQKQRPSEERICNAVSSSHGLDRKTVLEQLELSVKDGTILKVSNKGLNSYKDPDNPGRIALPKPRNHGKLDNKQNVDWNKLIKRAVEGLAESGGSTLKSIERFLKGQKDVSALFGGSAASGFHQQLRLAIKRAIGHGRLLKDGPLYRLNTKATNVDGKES
Oligonucleotide	E-score
GCGGCGAC	0.308
ATAGAGGG	-0.131
CAACAGAA	-0.099
GTTACAGA	-0.129
CGAGTGTA	0.091
AGCATGAA	-0.186
GCGCACTA	0.249
GTAGGCAA	-0.264
CCGAGAGC	0.0665
ATCAAAAT	-0.151
GCTCAGCA	-0.0451
GCTGATAC	-0.0512
GTGCGTCA	0.127
CAATTGTG	-0.0474
GAGTAGTA	-0.089
CCGTTGTA	0.17
AAAGCGCC	0.178
AATTGTGG	-0.181
CCAATCAC	-0.107
ACACATTC	-0.0554

Some of these lines once more (set 5):
Oligonucleotide	E-score
AGCATGAA	-0.186
GCGCACTA	0.249
GTAGGCAA	-0.264
CCGAGAGC	0.0665
ATCAAAAT	-0.151
GCTCAGCA	-0.0451
GCTGATAC	-0.0512
GTGCGTCA	0.127
CAATTGTG	-0.0474
GAGTAGTA	-0.089
CCGTTGTA	0.17
AAAGCGCC	0.178
AATTGTGG	-0.181
CCAATCAC	-0.107
